Published values of several laboratories.
Compare with care: the assays were run in different laboratories. ± gives the spread as reported.
OPRK1: Kappa-type opioid receptor (OPRK1, Homo sapiens, UniProt P41145)

The chains behind the UniProt entries cited, without tags or fusion partners.
UniProt P42681, whole entry: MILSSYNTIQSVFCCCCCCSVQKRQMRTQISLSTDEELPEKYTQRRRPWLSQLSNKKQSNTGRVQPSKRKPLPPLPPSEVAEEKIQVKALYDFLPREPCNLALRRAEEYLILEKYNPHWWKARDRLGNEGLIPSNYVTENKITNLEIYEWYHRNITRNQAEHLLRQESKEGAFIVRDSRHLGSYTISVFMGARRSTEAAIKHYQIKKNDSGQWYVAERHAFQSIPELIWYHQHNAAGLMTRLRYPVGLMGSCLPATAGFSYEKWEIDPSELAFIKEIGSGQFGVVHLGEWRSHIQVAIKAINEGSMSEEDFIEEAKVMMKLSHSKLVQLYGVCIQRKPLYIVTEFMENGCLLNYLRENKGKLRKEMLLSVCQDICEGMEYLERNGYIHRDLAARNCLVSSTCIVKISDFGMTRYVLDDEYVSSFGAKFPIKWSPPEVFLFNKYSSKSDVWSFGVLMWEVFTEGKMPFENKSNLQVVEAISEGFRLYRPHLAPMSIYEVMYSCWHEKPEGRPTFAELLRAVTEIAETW

The Emax of `CN(C(=O)Cc1cccc2occc12)[C@H]1CC[C@@]2(CCCO2)C[C@@H]1N1CCCC1` is reported as 105 ± 3.3% (OPRK1; agonist; baseline: U-50488 10 µM).
`CCN1CCN(Cc2ccc(NC(=O)c3ccc(C)c(/C=C/c4cnc5[nH]ccc5c4OC)c3)cc2C(F)(F)F)CC1` — result for “log2 fold change”: 0.968 (Testis-specific serine/threonine-protein kinase 2 (TSSK2, Homo sapiens, UniProt Q96PF2); inhibitor, cell-based kinome screen; 5 µM; baseline: vehicle).
For `U-69593`, the Δlog(τ/KA) was 0 (OPRK1; G protein activation, agonist; CHO-hKOR cell membranes; unit not given; baseline: reference agonist).
The stimulation of `CO[C@]12CC[C@@]3(C[C@@H]1[C@](C)(O)c1ccc(C(C)C)cc1)[C@H]1Cc4ccc(O)c5c4[C@@]3(CCN1CC1CC1)[C@H]2O5` is reported as 34 ± 3% (OPRK1; G-protein activation, agonist; 10 µM; baseline: U-69593).
For `CN(C(=O)Cc1ccc(Cl)c(Cl)c1)[C@H](CN1CCCC1)c1ccccc1`, the Emax was 98.5 ± 1.4% (OPRK1; agonist; baseline: U-50488 10 µM).
`CO[C@]12CC[C@@]3(C[C@@H]1[C@](C)(O)c1ccc(C)cc1)[C@H]1Cc4ccc(O)c5c4[C@@]3(CCN1CC1CC1)[C@H]2O5` gave a stimulation of 84 ± 7% (OPRK1; G-protein activation, agonist; 10 µM; baseline: U-69593).
For `ethoxymethyl salvinorin B`, “log intrinsic relative activity” read 0.58 ± 0.1 (OPRK1; G protein activation, agonist; concentration not given; baseline: dynorphin A).
The inhibition of `CC#C/C(=N\OC[C@H]1COCCN1)c1ccc2ncnc(Nc3ccc(OCc4cccc(F)c4)c(Cl)c3)c2c1` is reported as 6.3% (Tyrosine-protein kinase TXK (TXK, Homo sapiens, UniProt P42681); kinase activity; 10 µM).
`CO[C@]12CC[C@@]3(C[C@@H]1[C@](C)(O)c1ccsc1)[C@H]1Cc4ccc(O)c5c4[C@@]3(CCN1CC1CC1)[C@H]2O5` has a stimulation of 79 ± 2% (OPRK1; G-protein activation, agonist; 10 µM; baseline: U-69593).
`C#Cc1ccc2c(c1)C(c1ccccc1F)=N[C@H](C)c1c(-c3nc(C(C)C)no3)ncn1-2` has an inhibition of > 50% (OPRK1; radioligand binding; concentration not given, primary screen, added: [3H]U69593).
`CO[C@]12CC[C@@]3(C[C@@H]1[C@@](C)(O)C(C)(C)C)[C@H]1Cc4c(Cl)cc(O)c5c4[C@@]3(CCN1CC1CC1)[C@H]2O5` — result for antagonist activity: “inhibited” (OPRK1; antagonist; CHO; concentration not given).

For quick reference, copied from above:
The Emax of `CN(C(=O)Cc1cccc2occc12)[C@H]1CC[C@@]2(CCCO2)C[C@@H]1N1CCCC1` is reported as 105 ± 3.3% (OPRK1; agonist; baseline: U-50488 10 µM).
